Assay results of several laboratories.
A part holds a random share of what one study measured.

Series 1
Target: Centromere-binding protein 1, full length, N-terminal tag (CBF1, Saccharomyces cerevisiae, UniProt P17106, residues 1-351)
Chain of UniProt P17106 (whole entry, looked up): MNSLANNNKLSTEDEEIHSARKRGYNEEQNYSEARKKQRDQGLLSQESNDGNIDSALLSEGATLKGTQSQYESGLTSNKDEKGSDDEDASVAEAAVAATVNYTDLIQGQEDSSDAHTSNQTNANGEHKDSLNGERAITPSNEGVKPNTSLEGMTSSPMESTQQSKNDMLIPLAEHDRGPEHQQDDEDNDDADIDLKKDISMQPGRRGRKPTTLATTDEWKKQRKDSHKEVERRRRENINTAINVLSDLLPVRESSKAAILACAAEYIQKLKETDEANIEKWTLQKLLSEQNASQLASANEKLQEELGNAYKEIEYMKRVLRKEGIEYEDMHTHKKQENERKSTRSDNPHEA
Method: protein-binding microarray
Form: double-stranded DNA, one strand shown
Medium: in vitro
Concentration: 0.8 µM
Notes: whole 60-bp probe, no competitor
Direction: higher = stronger binding
Strand	fluorescence intensity [a.u.]
CTAAATTCTATTGGGCATCACATGGCAAAGCATTTCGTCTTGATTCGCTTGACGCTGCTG	2510
GAACCTTGGACTAGTCACGTGGAACGGTAGATCTAGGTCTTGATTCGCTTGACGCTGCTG	11200
CTATATAAACTTCAACACGCCACCTGGTCTTGGTTCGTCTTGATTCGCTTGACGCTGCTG	655
GAAATGGCACTTTCTCACGTGCCTTTCAGACTATAGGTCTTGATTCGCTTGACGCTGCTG	4240
GAAGATATGATGGTGATGGTGACGGTGATGGTATAGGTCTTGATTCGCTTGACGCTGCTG	509
CTACATCCTGTATTTCACACGAGAGCAAAACACTTCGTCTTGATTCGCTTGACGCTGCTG	584
GAACCGTTTTTATTTCATGAGACAACCTTTCTGTAGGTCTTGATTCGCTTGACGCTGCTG	598
CCTAACTACTATATGCATGTGATATAGCTTCGTACAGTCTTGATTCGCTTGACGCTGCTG	1590
TGTACGAAGCTATCACATGACACTATAGTAGTTAGGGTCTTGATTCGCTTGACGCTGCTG	4620
TGTACGAAGCTATGCCACATGGCTATAGTAGTTAGGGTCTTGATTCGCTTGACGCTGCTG	523
CTAAAATTAAGGTATCACGAGACACATGGAATATTCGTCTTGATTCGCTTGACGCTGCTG	2840
CTAAAATAACTAAGTCACGATATTTGTTTTATGTTCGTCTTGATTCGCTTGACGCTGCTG	1360
GAAATCTAGGAAAAGATGGTGACGCCGTTTATCTAGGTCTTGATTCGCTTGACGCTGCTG	482
GAATTTCTTACACCGCATGTGATAGGATACTAGTAGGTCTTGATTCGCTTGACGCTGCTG	1430
CTAAATCCCAACAATTACATCAGAACCCACACTTTCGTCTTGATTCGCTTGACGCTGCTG	474
GAACATGGCAAATATATGATCACGTGCGATTGTTAGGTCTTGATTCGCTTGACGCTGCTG	20100
CTACTATGTCTTGCTCACCTGCAATAGCCCGCGTTCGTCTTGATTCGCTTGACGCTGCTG	539
GAATGGCGAAAAATGCACGCGCGTAAATAATGATAGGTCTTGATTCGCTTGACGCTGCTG	651
CTAAAAGAGCGCAACCACGCGTATATTCCGGGCTTCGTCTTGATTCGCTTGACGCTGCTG	500
GAAGCTTCGGAAAGTTGCGTGATTGCATTAAAGTAGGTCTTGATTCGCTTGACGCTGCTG	645
CTAGTCACCAGTCATCATGAAAAGTGCACTGCATTCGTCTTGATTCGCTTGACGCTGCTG	508
TGTACGAAGCTATACTTCGTGGTTATAGTAGTTAGGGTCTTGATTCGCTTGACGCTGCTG	500
GAACTAAAAGGGAAACACGCCACACACCGCATATAGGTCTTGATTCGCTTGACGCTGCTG	566

Series 2
Target: RNA binding protein fox-1 homolog 2, RRM domain, GST-SBP tag (RBFOX2, Homo sapiens, UniProt O43251-10, residues 100-194)
Method: RNA Bind-n-Seq
Form: RNA
Medium: in vitro
Concentration: 365 nM
Notes: natural RNA segment, single round, ends assumed
Reference: no-protein control
Direction: higher = stronger binding
Target sequence (chain): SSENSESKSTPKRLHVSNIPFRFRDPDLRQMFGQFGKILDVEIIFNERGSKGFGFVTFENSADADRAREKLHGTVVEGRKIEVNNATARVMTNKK
Strand	RBNS enrichment (R)
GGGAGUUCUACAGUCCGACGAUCGGAAGGGGAGGCAGGAGGCUGCUUAGUCUGCUGCCAUGAUGGGCCCCAUGAAUGGUGGCUCUCAAGCUUCUGUGCUACACAGGGGUGUGUGGUUGGGCGAGUGUCCUUGUUGGAAUUCUCGGGUGCCAA	1.04
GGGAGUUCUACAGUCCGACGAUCAAGGGAACUAUGCCCUGGGCCAGGGCGAAUGCGUGGCUGGGCAGUGCCCAUCAUGGCAUUUUCACAUGUCCCAUAUGCCCCUCCUGUCUUAUUCCACUGCUUCUCCCAGCUGGAAUUCUCGGGUGCCAA	0.749
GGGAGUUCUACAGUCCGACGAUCGUGUAAGACUCAGCAGUGUUCAUGGUUAAGGUAAGGAACAUGCCUUUUCCAGAGCUGCUGCAAGAGGCAGGAGAAGCAGACCUGUCUUAGGAUGUCACUCCCAGGGUAAAUGGAAUUCUCGGGUGCCAA	0.637
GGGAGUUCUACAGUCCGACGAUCGGGGGGCACAGGAGCUGGGAGCCCCGUCUCCAGGAAAAGGAGAGGGGUUAAGAUGCACCGAGGCUGUAGCUGGGCUACUUGAUCUUGCUGAAAGUGUUUCUAAAGAUAGCUGGAAUUCUCGGGUGCCAA	0.709
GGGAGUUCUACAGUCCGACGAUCGUAUUGAUGCUACCUCAGGUCUCUAAGAUGCACAUGAGUCAGCACAGGUGGCACUGUCUCUCCCUUGGUCCUUCAGGACCAUAGCAGAUCCUGCAGGUUGACACGAAGUAUGGAAUUCUCGGGUGCCAA	0.723
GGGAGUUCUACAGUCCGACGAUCGGAGUUUUUAAUACCAAUGACAGAACAGAGAUUUGUGUGCUCAUCUUAAGAGCCAGAGCCAUAUAAGCAUCUUGGGAAAGCAAGUUUGAACCAGCUGCUGGUGUAAUGUAUGGAAUUCUCGGGUGCCAA	1.22
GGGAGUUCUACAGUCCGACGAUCAACCUUUUAACUAUAUAUAAAGUACUUUUUUGGUUUCUUUCUCACCACUUUUAUUCAAAAGUACUUUUAACAUACCAAUACAUAGUCUGUCUGAUGGGAGUAUAAAUUGGUGGAAUUCUCGGGUGCCAA	0.607
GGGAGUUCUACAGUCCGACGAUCAAAGUUUCAUUCUGUCAGAAAUAAGCCAUAGUACAGACUCAGAGAUAGAGGCAGUUUCUAGAGAACUCGGUCUUAUCGUGGGUUCUGGAGCACACCUCUCAGACCAGUCAUGGAAUUCUCGGGUGCCAA	0.297
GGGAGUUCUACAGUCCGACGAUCGGUCCUGGAUGCCCAGCUGGGCUACCCAGGUGCCAGCAUGUUUGCAUGGGAGGAAAGGCUCCACUUGCCCUUAACUCAAGAAGCAGAGCUUGUGCUAUGCACGGGGUGUCUGGAAUUCUCGGGUGCCAA	27.2
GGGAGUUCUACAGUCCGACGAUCGCCAGUGUGUGGCACCCCUCCCCCCCCAACUUCCAUUCCUGAUCUUAGGCAAGUUCUUGGAGUCUGCUCCCAGAUGGCAUCGGCUCUGAGAUACCGGUUACUUCCCUGGUUGGAAUUCUCGGGUGCCAA	0.875
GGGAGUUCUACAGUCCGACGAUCAGGUGGAUGGAGAGACAUUUGAUCCCUUGUUUGCUUAAUAAAUUAUAAAAUGAUGGCUUGGAAAAGCAGGCUAGUCUAACCAUGGUGCUAUUAUUAGGCUUGCUUGUUACUGGAAUUCUCGGGUGCCAA	2.16
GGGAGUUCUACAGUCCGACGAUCUGAGAAUGUGACCUUUAAGAAAAAUGAAAACUUUUGUAAAUUAUUGAUGAUUUUGUAAUUCUUAUGACUAAAUUUUCUUUUAAGCAUUUGUAUAUUAAAAUAGCAUACUGUGGAAUUCUCGGGUGCCAA	1.11

Series 3
Target: Prothrombin, mature alpha-thrombin (F2, Homo sapiens, UniProt P00734)
Method: aptamer microarray, sandwich
Form: DNA with 2'F-ANA
Medium: in vitro
Concentration: 200 nM
Notes: whole 15-mer aptamer, many near background
Added: Cy3 exosite-II aptamer, 400 nM
Direction: higher = stronger binding
Strand: GGTTGGTGTGGTTGG
Modification	mean fluorescence intensity
2'F-ANA at 2 6 7 10 11	109 a.u.
2'F-ANA at 6 8 10 11 12 13 14	96.7 a.u.
2'F-ANA at 1 5 7 10 12 13	87.7 a.u.
2'F-ANA at 1 2 3 5 7 8 10 12 15	65.3 a.u.
2'F-ANA at 2 3 4 6 7 9 10 11 12 14	172 a.u.
2'F-ANA at 1 9 11 12	321 a.u.
2'F-ANA at 1 3 4 6 7 8 9 14 15	71.3 a.u.
2'F-ANA at 5 8 9 10 11 14 15	128 a.u.
2'F-ANA at 1 3 4 6 7 12 15	413 a.u.
2'F-ANA at 1 3 7 8 10 11 12 13 14 15	66.8 a.u.
2'F-ANA at 1 3 4 5 6 7 8 12 13 14	48.6 a.u.
2'F-ANA at 2 4 6 8 9 10 12	113 a.u.
2'F-ANA at 2 3 5 6 7 10 14 15	48.1 a.u.
2'F-ANA at 2 4 5 9 10 11 13	44.4 a.u.
2'F-ANA at 1 3 4 5 6 7 9 11	54.2 a.u.
2'F-ANA at 3 6 8 9 10 13 15	463 a.u.
2'F-ANA at 1 2 4 9 10 11 12 15	57 a.u.
2'F-ANA at 2 3 5 6 7 9 10 11 12 14	55.1 a.u.
2'F-ANA at 2 6 7 11 13 14	101 a.u.
2'F-ANA at 2 3 4 6 10 11 14 15	170 a.u.
2'F-ANA at 3 7 9 10 11 13 15	496 a.u.
2'F-ANA at 2 7 8 9 12 13 14 15	167 a.u.
2'F-ANA at 4 6 8 9 10 11 12 13	72.2 a.u.
2'F-ANA at 1 3 6 7 10 15	84.6 a.u.
2'F-ANA at 2 3 5 8 9 12 13 15	156 a.u.

Series 4
Target: Sal-like protein 4, full length isoform A (SALL4, Homo sapiens, UniProt Q9UJQ4, residues 1-1053)
Chain of UniProt Q9UJQ4 (whole entry, looked up): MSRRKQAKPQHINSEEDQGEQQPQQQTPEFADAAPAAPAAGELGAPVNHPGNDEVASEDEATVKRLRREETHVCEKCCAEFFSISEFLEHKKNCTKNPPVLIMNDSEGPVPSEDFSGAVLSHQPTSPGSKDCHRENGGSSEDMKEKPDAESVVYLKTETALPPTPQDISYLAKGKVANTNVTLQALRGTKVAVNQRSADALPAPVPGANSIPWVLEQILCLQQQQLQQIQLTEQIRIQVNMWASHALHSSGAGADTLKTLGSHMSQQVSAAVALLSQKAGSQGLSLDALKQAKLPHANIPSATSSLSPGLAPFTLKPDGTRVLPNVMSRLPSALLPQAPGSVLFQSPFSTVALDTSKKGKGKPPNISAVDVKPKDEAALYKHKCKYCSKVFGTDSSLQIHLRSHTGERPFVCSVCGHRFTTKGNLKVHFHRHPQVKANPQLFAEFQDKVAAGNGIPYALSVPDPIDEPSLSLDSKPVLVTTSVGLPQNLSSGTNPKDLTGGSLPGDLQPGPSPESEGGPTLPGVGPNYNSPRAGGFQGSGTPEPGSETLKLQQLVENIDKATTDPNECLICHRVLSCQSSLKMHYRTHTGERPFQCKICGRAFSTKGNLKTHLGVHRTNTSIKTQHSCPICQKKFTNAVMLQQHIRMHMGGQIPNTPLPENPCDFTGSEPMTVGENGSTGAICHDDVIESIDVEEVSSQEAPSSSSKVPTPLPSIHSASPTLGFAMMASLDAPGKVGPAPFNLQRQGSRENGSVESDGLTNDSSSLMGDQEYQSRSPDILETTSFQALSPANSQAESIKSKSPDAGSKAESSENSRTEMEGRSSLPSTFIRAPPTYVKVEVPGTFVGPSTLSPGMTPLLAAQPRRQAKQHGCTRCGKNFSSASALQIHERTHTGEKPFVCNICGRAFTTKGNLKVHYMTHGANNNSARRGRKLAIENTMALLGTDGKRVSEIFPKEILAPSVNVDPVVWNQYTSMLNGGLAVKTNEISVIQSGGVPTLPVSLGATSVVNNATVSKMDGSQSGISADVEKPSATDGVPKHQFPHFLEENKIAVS
Method: universal PBM
Form: double-stranded DNA, one strand shown
Medium: in vitro
Concentration: 600 nM
Notes: 8-mer, flanks averaged, mean of replicates
Direction: higher = stronger binding
Strand	E-score
TACGATCA	0.15
ATGAGAAG	0.118
CCTCTATC	-0.0609
AAGAGGAG	-0.163
CCAAGGGG	-0.148
ACACCCCA	-0.176
GCATTGTA	0.134
CATGTGCA	-0.00739
CCTTGACC	-0.268
CTGAGCCA	-0.28
ACACTGTA	0.0825
ACTGCTCT	-0.00257
GATGCAGA	-0.0761
ATCGAGGA	0.0904
CCCTATTC	-0.0475
TGCTGACA	0.023
AATCGACT	0.0114

Repeated from above (series 1):
Strand	fluorescence intensity [a.u.]
CTAAATTCTATTGGGCATCACATGGCAAAGCATTTCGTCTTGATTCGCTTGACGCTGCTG	2510
GAACCTTGGACTAGTCACGTGGAACGGTAGATCTAGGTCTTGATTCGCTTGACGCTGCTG	11200
CTATATAAACTTCAACACGCCACCTGGTCTTGGTTCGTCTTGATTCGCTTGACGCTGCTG	655
GAAATGGCACTTTCTCACGTGCCTTTCAGACTATAGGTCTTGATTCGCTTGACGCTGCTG	4240
GAAGATATGATGGTGATGGTGACGGTGATGGTATAGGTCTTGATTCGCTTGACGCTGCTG	509
CTACATCCTGTATTTCACACGAGAGCAAAACACTTCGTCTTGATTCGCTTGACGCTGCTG	584
GAACCGTTTTTATTTCATGAGACAACCTTTCTGTAGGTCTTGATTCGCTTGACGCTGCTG	598
CCTAACTACTATATGCATGTGATATAGCTTCGTACAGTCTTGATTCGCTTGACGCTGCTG	1590
